Results pooled from the literature.
Numbered parts are unrelated; each lists some results of a single study. Substitutions count along the parent as printed.

Set 1
Target: CCNA2, cyclin fold, Cln2 fusion (human)
Method: yeast growth competition, sequencing
Medium: yeast
Notes: strong parent motif
Reference: not given
Direction: higher = stronger binding
Starting sequence: BRCA2 docking peptide (human); PSIKRNLLNEFDR
Substitution | normalised enrichment score
F11V | 1.99
N6C | 4.8
K4P | 1.8
D12N | 6.42
P1L | 5.8
L8T | 3.46
R13M | 4.78
I3R | 2.56
E10M | 1.54
D12I | 3.18
S2I | 3.9

Set 2
Target: PABPC1L2, full length, GST fusion (mouse, UniProt A0ABA7IW68)
Method: RNAcompete
Molecule type: RNA
Medium: in vitro
Concentration: 20 nM
Notes: 7-mer, probes averaged, single round
Reference: mean of 7-mers
Direction: higher = stronger binding
Residues (chain): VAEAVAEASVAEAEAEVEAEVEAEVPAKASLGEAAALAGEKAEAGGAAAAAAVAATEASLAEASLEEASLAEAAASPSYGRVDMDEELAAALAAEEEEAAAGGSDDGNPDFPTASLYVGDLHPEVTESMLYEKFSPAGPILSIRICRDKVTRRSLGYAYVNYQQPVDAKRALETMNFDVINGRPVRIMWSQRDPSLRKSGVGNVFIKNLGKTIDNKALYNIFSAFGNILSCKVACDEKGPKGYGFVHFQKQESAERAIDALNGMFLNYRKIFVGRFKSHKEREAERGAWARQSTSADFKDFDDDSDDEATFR
Sequence | 7-mer Z-score
AUUAAUA | -0.146
CUAGACG | -0.0047
CUGUCGG | -0.162
AAGCAAA | 0.901
GAGGUUA | -0.0101
AGGUCUU | -0.211
GCGCGAU | -0.155
CAUAUUC | -0.115
GUAGGCU | 0.0805
GCAAUUG | -0.0881
AGGUUCU | -0.311
UAUACAC | 0.0134
UACAGCG | 0.017
UUUAGGU | 0.0388

Set 3
Target: RING finger protein unkempt homolog, zinc fingers 1-6, GST-SBP tag (UNK, Homo sapiens, UniProt Q9C0B0, residues 30-357)
Sequence of UniProt Q9C0B0 (30-357, looked up): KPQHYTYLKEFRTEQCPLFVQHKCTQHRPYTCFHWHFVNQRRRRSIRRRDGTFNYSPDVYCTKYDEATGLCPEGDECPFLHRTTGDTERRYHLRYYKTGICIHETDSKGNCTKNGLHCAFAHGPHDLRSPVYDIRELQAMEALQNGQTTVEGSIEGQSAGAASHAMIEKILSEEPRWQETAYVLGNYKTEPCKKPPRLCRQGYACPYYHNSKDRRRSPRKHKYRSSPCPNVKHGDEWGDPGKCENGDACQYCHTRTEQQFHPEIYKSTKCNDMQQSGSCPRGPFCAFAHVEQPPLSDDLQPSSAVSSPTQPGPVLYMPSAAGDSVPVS
Method: RNA Bind-n-Seq
Molecule type: RNA
Medium: in vitro
Concentration: not given
Notes: RNA with constant flanks, ends assumed
Reference: input RNA pool
Direction: higher = stronger binding
Shared flanks, not repeated: GGGAGUUCUACAGUCCGACGAUC … CAACAGAGGAUUGAGCAUCA
Sequence | bound/input enrichment [ratio]
AGUGUAGUAUUUAUUUCUAAUUUGCCUAACAAAGGAUAUUCUACAGAAGAAAUUUACAACUCCGCAAAACCAUUUGGUGCUUUGAAGGACAUUUUGGUUUUAUCAUCUCAUAAAAAGGCA | 1.15
UUCCCUGAAUUUCUGACAAUGAUGGCAAGAAAAAUGAAAGACACAGACAGUGAAGAAGAGAUCCGAGAAGCAUUCCGUGUGUUUGAUAAGGAUGGCAAUGGCUAUAUUAGUGCAGCAGAG | 0.372
CUGAAAGUUCUGGCCACUGCAUUUGACACGACAUUGGGAGGUAGAAAAUUUGAUGAAGUGUCCGUAAAUCACUUCUGUGAAGAAUUUGGGAAGAAAUACAAGCUAGACAUUAAGUCCAAA | 0.41
CUUACUCAUCAUUUAAAAACUAUAUUUACAGAAGAUGUUUGGUUGCUGGGGGGGCUUUUUCCGGUUUUGGGGCAUUUGUUUUUUGUAAAUAAGAUGAUUAUGCUUUGUGGCUAUCCAUCA | 0.517
GCUCACUUCGACCUUGCCUUGGCACGGUCUGCUAAACUACGAAACCCAAAAAAUGACCUCCCCGUAUUGCAUCUCUCUGACCUGAUUCGAAUGGCAUUCAUGGCUGCAACUGAUCAUAGC | 0.189
ACAUCUUAUGAAAUGCUUAUUAAAGAGAAGUCUGUGUUCAAAAAAUUUAAUUGGAGAUACUCCGUAACCGAUGAAGCUCACAGGAUCAAAAAUGAAAAAUCUAAGUUGUCAGAAAUAGUG | 0.397
CUCCCUCAACCAAUAUAUAGACACAUAGCAUCUUUCCUGUCAGUCUUCAAACUAGUAUUAACCGGCUUAAUAAUUGUUGGCAAGGAUCCUUUUGCUUUCUUUGGCAUGCAAGCUCCUAGC | 49.7
AGUUUGCUUGGGUUGGUUUUUUGUUUUUGUUUUUCCUGGAAAACAUUCAGUGAGAGAAGUAACCGAUUGAAAACAAAUGAAUUCUCAACUUCUAUGUUGACCAUGUAGAGAGUUCAGACA | 0.23

Set 4
Target: Interferon regulatory factor 7, full length, phosphomimetic (IRF7, Homo sapiens, UniProt Q92985, residues 1-503, S101K/S471D/S472D/S475D/S476D/S477D/S483D/S484D/S487D)
Method: protein-binding microarray
Molecule type: double-stranded DNA, one strand shown
Medium: in vitro
Concentration: 250 nM
Notes: 60-bp whole probe
Together with: salmon DNA 0.4 mg/ml
Reference: random background probes
Direction: higher = stronger binding
Shared flanks, not repeated: GCCTAGCAC … GTCTTGATTCGCTTGACGCTGCTG
Residues (chain): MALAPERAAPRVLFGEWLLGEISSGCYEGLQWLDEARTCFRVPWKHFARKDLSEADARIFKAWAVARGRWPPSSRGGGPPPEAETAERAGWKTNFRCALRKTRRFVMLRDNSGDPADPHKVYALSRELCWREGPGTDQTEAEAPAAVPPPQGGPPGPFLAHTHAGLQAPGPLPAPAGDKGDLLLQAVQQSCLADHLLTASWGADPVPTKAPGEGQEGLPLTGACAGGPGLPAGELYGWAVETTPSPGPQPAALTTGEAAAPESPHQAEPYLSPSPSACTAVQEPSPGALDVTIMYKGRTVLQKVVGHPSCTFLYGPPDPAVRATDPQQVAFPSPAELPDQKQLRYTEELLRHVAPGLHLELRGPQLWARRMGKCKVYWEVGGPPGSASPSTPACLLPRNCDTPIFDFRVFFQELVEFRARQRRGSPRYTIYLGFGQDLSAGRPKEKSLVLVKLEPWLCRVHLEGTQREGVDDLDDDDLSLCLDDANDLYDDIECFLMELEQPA
Sequence | log fluorescence [z-score]
GACGACATCAGTTTCGAGACGTGCTAG | 3.93
TCATTTTTGCATTGCTTACTGTGCTAG | 0.713
TGAGATTTCAGTTCCGATTAGTGCTAG | 1.32
CCTAGTTTTACTTTCTATGTGTGCTAG | 2.08
GACGGTTTCCTTCACCTGACGTGCTAG | 1.15
TTAGGACTGGTTTTCCTTTAGTGCTAG | 2.13
GACGGACTGGGACTGGCGACGTGCTAG | -0.601
GAGGATATCGGGACTGGAGACGTGCTA | -0.395
CACATTCTCTGCTTGGGTCTGTGCTAG | 1.14
GACGATTTCAGCCTGGAGACGTGCTAG | -0.0997
GACGGTCTAGGACTGGGGACGTGCTAG | -0.129
CTTCCCCTCTCATTCCAATTGTGCTAG | 1.69
GATTCTCCTGCCTCAGCCTCGTGCTAG | 1.3
TCAACTCTGTCCCTCTGACTGTGCTAG | 0.0337
TCGGTTTCCAAATTGTCTCTGTGCTAG | 6.86

Set 5
Target: Sal-like protein 4, full length isoform B (SALL4, Homo sapiens, UniProt Q9UJQ4-2, residues 1-616)
Method: universal PBM
Molecule type: double-stranded DNA, one strand shown
Medium: in vitro
Concentration: not given
Notes: 8-mer, flanks averaged, mean of replicates
Direction: higher = stronger binding
Sequence | E-score
TACGTGAA | 0.0775
ACTGTTTA | 0.222
ATGTTCCC | -0.116
AAACACAG | 0.15
ACCCCATG | -0.115
ATCAACAA | 0.215
AACACCAT | 0.0528
ATGCGGTG | -0.239
AAGTCTCA | 0.0721
ATCTTCTC | 0.0837
AACCACGC | -0.18
CCGTTGTA | 0.0328
ACGCCAGG | -0.191
ATGGATCG | -0.0129
GCATTACA | 0.129
CCGGTGCC | -0.372
CTTCTTGC | -0.0708
ACGATCTG | -0.172
CGGGCGGC | -0.398
ATATGGCG | 0.19
CTGCTGCA | -0.197
ACTCACGA | -0.0445
GGTCCTTA | -0.0327
AATCTGCG | -0.0884
GTTATCCA | 0.118

Set 6
Target: Histone acetyltransferase KAT6A, winged helix 1, GST fusion (KAT6A, Homo sapiens, UniProt Q92794, residues 1-85)
Method: protein binding microarray
Molecule type: double-stranded DNA, one strand shown
Medium: in vitro
Concentration: not given
Notes: 8-mer, flanks averaged, mean of 2 arrays, mostly near background
Reference: not given
Direction: higher = stronger binding
Construct (chain): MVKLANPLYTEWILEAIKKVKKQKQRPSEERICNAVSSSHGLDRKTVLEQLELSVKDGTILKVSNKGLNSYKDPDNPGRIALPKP
Sequence | E-score
TGTCTGAA | -0.184
ATTACATA | -0.253
CTATCATA | 0.00556
CGATCGAG | 0.0932
TATGGGCA | -0.0862
GTCGCGGA | 0.353
GTCTTAGA | -0.0805
ACCACAAG | -0.178
CATAGAAC | -0.0894
GCTACAAA | -0.2
GTCCCCGA | 0.0399
CCCCTAAC | 0.0647
CGCCTTAC | 0.161
CGAACTAG | -0.116
CGCGGAAA | 0.353
ATACTTCG | 0.0494
ACGCTTTA | 0.0347
GATGAATA | -0.108
CCCACGGA | 0.0784
ACGTATGC | 0.054
ATCTTCGA | -0.0471
CAAAGGCA | -0.117
GTGTAATA | 0.0213
TCTTGCCA | -0.287
GATCGCGA | 0.224

Set 7
Target: ABI1, truncated, D143A, DHFR fusion (Arabidopsis thaliana)
Method: DHFR PCA, deep sequencing
Medium: yeast
Notes: methotrexate growth selection, single substitutions
Together with: (+)-ABA 17 µM
Reference: wild-type fitted maximum
Direction: higher = stronger binding
Starting sequence: PYL1, truncated, DHFR fusion (Arabidopsis thaliana); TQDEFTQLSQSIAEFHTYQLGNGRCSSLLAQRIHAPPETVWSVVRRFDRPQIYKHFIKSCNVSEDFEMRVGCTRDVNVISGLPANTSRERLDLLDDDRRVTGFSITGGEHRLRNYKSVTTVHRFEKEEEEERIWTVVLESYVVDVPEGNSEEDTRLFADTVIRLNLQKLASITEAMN
Substitution | relative binding score [%]
F56D | 2.87
S87G | -2.05
V136E | 15.7
E129D | 96.7
A158V | 104
E139S | 56.3
D3V | 70.7
V76E | -16.5
R90H | 50.2
R132K | 101
R74Y | -21.8
H16Y | -12.8
Y18S | 52
N114T | 8.19

Repeated from above (set 5):
Sequence | E-score
CCGTTGTA | 0.0328
ACGCCAGG | -0.191
ATGGATCG | -0.0129
GCATTACA | 0.129
CCGGTGCC | -0.372
CTTCTTGC | -0.0708
ACGATCTG | -0.172
CGGGCGGC | -0.398
ATATGGCG | 0.19
CTGCTGCA | -0.197
ACTCACGA | -0.0445
GGTCCTTA | -0.0327
AATCTGCG | -0.0884
